Experimental data collected from several papers.
Numbers after ± are the reported error.
Chain of UniProt P61073 (whole entry, looked up): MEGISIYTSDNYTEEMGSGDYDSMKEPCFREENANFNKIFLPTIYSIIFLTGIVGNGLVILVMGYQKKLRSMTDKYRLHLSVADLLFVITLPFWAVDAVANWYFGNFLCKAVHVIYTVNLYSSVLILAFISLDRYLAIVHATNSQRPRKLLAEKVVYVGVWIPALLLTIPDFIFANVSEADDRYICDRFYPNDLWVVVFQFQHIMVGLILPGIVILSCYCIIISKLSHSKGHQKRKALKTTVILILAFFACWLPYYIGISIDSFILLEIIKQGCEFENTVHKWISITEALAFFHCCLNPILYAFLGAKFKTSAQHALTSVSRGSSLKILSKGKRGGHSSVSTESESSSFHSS

SMILES	target or system	assay	system	setting	how to read	quantity	result
CN1C(=O)[C@@H](Cc2ccc(O)cc2)NC(=O)CNC(=O)[C@H](Cc2ccc3ccccc3c2)NC(=O)[C@H](CCCNC(=N)N)NC(=O)[C@H]1CCCNC(=O)c1ccc(CNC(=O)CN2CCN(CC(=O)O)CCN(CC(=O)O)CCN(CC(=O)O)CC2)cc1 [gallium-68 labelled]	CXCR4 (Homo sapiens, UniProt P61073)	PET imaging	human, bladder			SUVmax	71
COc1ccc(CNc2nc(N3CCC[C@H]3CO)ncc2C(=O)NN)cc1Cl	Salmonella typhimurium		TA102	250 µg/plate, together with: rat liver S9		revertant count	223 ± 12
O=C(O)CC1C2CCCN3CCCC(CN1CCc1ccc(Cl)cc1)C23 (stereo not drawn)	HEK293T					CC50	83.3 µM
CN(C)CC1CCCCC1(O)c1cccc(O)c1 (stereo not drawn)			Caco-2	10 µM, 3 h, pH 7.4		Papp A→B	12.9 ×10⁻⁶ cm/s
COc1ccc(CNc2nc(N3CCC[C@H]3CO)ncc2C(=O)NNC(=O)c2cnc(N3CCC[C@H]3CO)nc2NCc2ccc(OC)c(Cl)c2)cc1Cl	Salmonella typhimurium		TA1535	1000 µg/plate, 48 h		revertant count	41 ± 2
COc1cc(C(=O)NCCOCCOCCOCCNC(=O)c2ccc([18F])nc2)ccc1NC(=O)C1NC(CC(C)(C)C)C(C#N)(c2ccc(Cl)cc2F)C1c1cccc(Cl)c1F (stereo not drawn)	SJSA-1 tumour model		host not given, blood	1 h, tumour-bearing		tracer uptake	1.08 %ID/g
O=C(O)CCC(NP(=O)(O)OCCC[C@@H](NC(=O)CCC(NC(=O)c1ccc([18F])cc1)C(=O)O)C(=O)O)C(=O)O (stereo partly drawn)	PC-3 tumour model		host not given, spleen	intravenous, 2 h, tumour-bearing		tracer uptake	0.76 %ID/g
CN[C@](C)(C[18F])C(=O)O	A549 tumour model		host not given, heart	2 h, tumour-bearing		tracer uptake	2.8 %ID/g
CC[C@H](C)C(=O)N1CCC(NC(=O)Nc2ccc(OC(F)(F)F)c(F)c2)CC1			human, plasma	oral, single dose, healthy volunteers		half-life	~62.4 h
O=C(O)CCC(NP(=O)(O)OCCC[C@@H](NC(=O)CCC(NC(=O)CCCCCNC(=O)CCCCCNC(=O)c1ccc([18F])cc1)C(=O)O)C(=O)O)C(=O)O (stereo partly drawn)	PC-3 tumour model		host not given, bone	intravenous, 2 h, tumour-bearing		tracer uptake	0.14 %ID/g
CCOC(=O)CC[C@@H](NC(=O)c1ccc(N(C)Cc2ccc3[nH]c(C)nc(=O)c3c2)s1)C(=O)OCC	Mycobacterium tuberculosis		H37Rv	10 µM, 24 h		metabolized share of uptake	~93.6%
O=C(O)CCC(NP(=O)(O)OCCC[C@@H](NC(=O)CCC(NC(=O)CCCCCNC(=O)c1ccc([18F])cc1)C(=O)O)C(=O)O)C(=O)O (stereo partly drawn)	CWR22Rv1 tumour model		host not given, heart	intravenous, 2 h, tumour-bearing		tracer uptake	0.17 %ID/g
CCC(=O)N(C)c1ccc(Cl)c(Cl)c1	Salmonella typhimurium	Ames test	TA1537	5.00 mg/plate, with rat liver S9		revertants	0 revertants/plate
Nc1nc2c([C@@H]3O[C@@H]4COP(=O)(O)O[C@H]5[C@@H](O)[C@H](c6snc7c(=O)[nH]c(N)nc67)O[C@@H]5COP(=O)(O)O[C@H]4[C@H]3O)snc2c(=O)[nH]1					baseline: parent monomeric nucleoside	relative emission quantum yield	16%
C[C@@](O)(C(F)F)[C@H](NC(=O)c1ccc(C#CC#CC2CC2)cc1)C(=O)NO			mouse, plasma	intravenous, 40 mg/kg		clearance	26.9 mL/min/kg

Repeated from above:
SMILES	target or system	assay	system	setting	how to read	quantity	result
C[C@@](O)(C(F)F)[C@H](NC(=O)c1ccc(C#CC#CC2CC2)cc1)C(=O)NO			mouse, plasma	intravenous, 40 mg/kg		clearance	26.9 mL/min/kg
